Experimental data gathered from unrelated publications.
Lines come from different studies, so protocols differ.

[O-][N+]1=C(c2ccccc2)C2=NCCN2c2ccccc21
MIC (Fusobacterium nucleatum): 0.06 to 0.125 µg/mL

CC[C@H](C)[C@H](NC(=O)[C@H](Cc1c[nH]c2ccccc12)NC(=O)[C@H](CCCCN)NC(=O)[C@H](CC(C)C)NC(=O)[C@@H](NC(=O)[C@@H](NC(=O)CNC(=O)[C@H](CCCCN)NC(=O)[C@H](Cc1c[nH]cn1)NC(=O)[C@H](CCCCN)NC(=O)[C@H](Cc1c[nH]c2ccccc12)NC(=O)[C@H](C)NC(=O)[C@H](CC(C)C)NC(=O)[C@H](CO)NC(=O)[C@@H](NC(=O)[C@H](Cc1ccc(O)cc1)NC(=O)[C@H](CCCCN)NC(=O)[C@H](CCC(N)=O)NC(=O)CNC(=O)[C@H](CCCCN)NC(=O)[C@@H](NC(=O)[C@H](C)NC(=O)[C@H](CC(C)C)NC(=O)[C@H](Cc1ccccc1)NC(=O)[C@H](CCC(N)=O)NC(=O)[C@@H](NC(=O)[C@H](CC(C)C)NC(=O)[C@H](CCCCN)NC(=O)[C@H](CCSC)NC(=O)[C@H](Cc1ccccc1)NC(=O)[C@H](C)NC(=O)[C@H](C)NC(=O)[C@@H](N)CCSC)[C@@H](C)CC)[C@@H](C)O)C(C)C)[C@@H](C)O)[C@@H](C)CC)C(=O)N[C@@H](CC(N)=O)C(N)=O
MIC (Salmonella enterica serovar Typhimurium; DA6192; 24 h, 37 °C): 20 µg/mL

CCCCCCCC(=O)NCCCC[C@H](NC(=O)CCCCCCC)C(=O)N[C@@H](CCCCNC(=O)CCCCCCC)C(=O)NCC(=O)NCC(=O)NCC(=O)N[C@@H](CS)C(=O)N[C@@H](CCCNC(=N)N)C(=O)N[C@@H](CCCCN)C(=O)N1CCC[C@H]1C(=O)N[C@@H](CS)C(=O)N[C@@H](CCCNC(=N)N)C(=O)N[C@@H](CCCCN)C(=O)N1CCC[C@H]1C(N)=O
MIC (Candida albicans; broth microdilution; 17546, RPMI-1640; 48 h, 30 °C): 8 µM

CC[C@H](C)[C@H](N)C(=O)N[C@@H](CCCNC(=N)N)C(=O)N[C@H](C(=O)N[C@@H](Cc1c[nH]c2ccccc12)C(=O)N[C@@H](CCCCN)C(=O)N[C@@H](CCCCN)C(=O)N[C@H](C(=O)N[C@H](C(=O)N[C@@H](CCCNC(=N)N)C(=O)N[C@@H](CCCCN)C(=O)N[C@@H](Cc1c[nH]c2ccccc12)C(=O)N[C@@H](CCCCN)C(=O)N[C@@H](C)C(=O)N[C@H](C(=O)N[C@@H](Cc1c[nH]c2ccccc12)C(=O)N[C@@H](Cc1c[nH]cn1)C(N)=O)[C@@H](C)CC)C(C)C)[C@@H](C)CC)C(C)C
MIC (Listeria monocytogenes; broth dilution; KCTC 13064): 12.5 µM

CCCCCCCCCC(=O)NCCCC[C@H](NC(=O)CCCCCCCCC)C(=O)N[C@@H](CCCCNC(=O)CCCCCCCCC)C(=O)NCC(=O)NCC(=O)NCC(=O)N[C@@H](CS)C(=O)N[C@@H](CCCNC(=N)N)C(=O)N[C@@H](CCCCN)C(=O)N1CCC[C@H]1C(=O)N[C@@H](CS)C(=O)N[C@@H](CCCNC(=N)N)C(=O)N[C@@H](CCCCN)C(=O)N1CCC[C@H]1C(N)=O
MIC (Candida albicans; broth microdilution; SP 3876, RPMI-1640; 48 h, 30 °C): 32 µM

CN[C@H](CC(C)C)C(=O)N[C@H]1C(=O)N[C@@H](CC(N)=O)C(=O)N[C@H]2C(=O)N[C@H]3C(=O)N[C@H](C(=O)N[C@H](C(=O)NCC(N)=O)c4cc(O)cc(O)c4-c4cc3ccc4O)[C@H](O)c3ccc(c(Cl)c3)Oc3cc2cc(c3O[C@@H]2O[C@H](CO)[C@@H](O)[C@H](O)[C@H]2O[C@H]2C[C@](C)(NCc3ccc(OCc4cn(CC(=O)N[C@H](C(=O)N[C@@H](CCN)C(=O)N[C@H]5CCNC(=O)[C@H]([C@@H](C)O)NC(=O)[C@H](CCN)NC(=O)[C@H](CCN)NC(=O)[C@H](CC(C)C)NC(=O)[C@@H](CC(C)C)NC(=O)[C@H](CCN)NC5=O)[C@@H](C)O)nn4)c(OC)c3)[C@H](O)[C@H](C)O2)Oc2ccc(cc2Cl)[C@H]1O
MIC (Pseudomonas aeruginosa; broth microdilution; ATCC 25922, cation-adjusted Mueller-Hinton broth): 6 µM

CC[C@H](C)[C@H](N)C(=O)NCC(=O)N[C@@H](CC(C)C)C(=O)N[C@H](CCC(=O)O)C(=O)N[C@H](C(=O)N[C@H]1CCCCNC(=O)[C@H](CC(N)=O)NC(=O)[C@@H](CC(=O)O)NC(=O)[C@H](Cc2c[nH]cn2)NC(=O)[C@@H](Cc2ccccc2)NC(=O)[C@H]([C@@H](C)CC)NC(=O)[C@@H](CCCN)NC1=O)[C@@H](C)CC
MIC (Staphylococcus simulans; 22; 18 h, 37 °C, 0.3 mM ZnSO4 LB): > 64 µg/mL

CCCCCCn1cc[n+](CCCCCCOc2cc(OCCCCCC[n+]3ccn(CCCCCC)c3)cc(OCCCCCC[n+]3ccn(CCCCCC)c3)c2)c1.[Br-].[Br-].[Br-]
MIC (eight bacterial strains): ≤ 2 µM

CC[C@H](C)[C@H](NC(=O)[C@H](CCCNC(=N)N)NC(=O)[C@H](CO)NC(=O)[C@H](Cc1ccc(O)cc1)NC(=O)[C@@H](NC(=O)[C@@H](NC(=O)[C@H](C)NC(=O)CNC(=O)[C@H](CCCCN)NC(=O)[C@H](CCCCN)NC(=O)CCNC(=O)CCCCCNC(=O)[C@H](CCCNC(=N)N)NC(=O)CCCCCNC(=O)[C@H](CCCNC(=N)N)NC(=O)[C@H](CCCNC(=N)N)NC(=O)CCCCCNC(=O)[C@H](CCCNC(=N)N)NC(=O)[C@H](CCCNC(=N)N)NC(=O)CCCCCNC(=O)[C@H](CCCNC(=N)N)NC(=O)[C@H](CCCNC(=N)N)NC(=O)CCCCCNC(=O)[C@@H](N)CCCNC(=N)N)C(C)C)[C@@H](C)O)C(=O)N[C@@H](CO)C(=O)NCC(=O)N[C@@H](CCC(N)=O)C(=O)N[C@@H](Cc1ccc(O)cc1)C(=O)N[C@@H](CCCCN)C(=O)O
MIC (Escherichia coli; ATCC 25922; 1 h, 37 °C, after 50% human serum): 6 µM

COc1ccc2ccc(O)c(/C=N/[C@H]3CCCC[C@H]3/N=C/c3cc(F)ccc3O)c2c1
MIC (Klebsiella pneumoniae; bacterial growth, broth microdilution; carbapenem-resistant clinical isolate): > 40 µM

CN[C@H](CC(C)C)C(=O)N[C@H]1C(=O)N[C@@H](CC(N)=O)C(=O)N[C@H]2C(=O)N[C@H]3C(=O)N[C@H](C(=O)N[C@H](C(=O)N[C@@H](CCCNC(=N)N)C(N)=O)c4cc(O)cc(O)c4-c4cc3ccc4O)[C@H](O)c3ccc(c(Cl)c3)Oc3cc2cc(c3O[C@@H]2O[C@H](CO)[C@@H](O)[C@H](O)[C@H]2O[C@H]2C[C@](C)(NCc3ccc(OCc4cn(CC(=O)N[C@H](C(=O)N[C@@H](CCN)C(=O)N[C@H]5CCNC(=O)[C@H]([C@@H](C)O)NC(=O)[C@H](CCN)NC(=O)[C@H](CCN)NC(=O)[C@H](CC(C)C)NC(=O)[C@@H](CC(C)C)NC(=O)[C@H](CCN)NC5=O)[C@@H](C)O)nn4)c(OC)c3)[C@H](O)[C@H](C)O2)Oc2ccc(cc2Cl)[C@H]1O
MIC (Pseudomonas aeruginosa; broth microdilution; ATCC 10145, cation-adjusted Mueller-Hinton broth): 11 µM

CC1(C)S[C@@H]2[C@H](NC(=O)[C@H](NC(=O)C3=C(O)C(c4ccccc4F)NC3=O)c3ccccc3)C(=O)N2[C@H]1C(=O)O (some centres unmarked)
MIC (Escherichia coli; broth microdilution; isolate IU, CTX-M-14, TEM-1; no clavulanic acid): > 200 µg/mL

CCCCCCCC(=O)NCCCC[C@H](NC(=O)CCCCCCC)C(=O)N[C@@H](CCCCNC(=O)CCCCCCC)C(=O)NCC(=O)NCC(=O)NCC(=O)N[C@@H](CS)C(=O)N[C@@H](CCCNC(=N)N)C(=O)N[C@@H](CCCCN)C(=O)N1CCC[C@H]1C(=O)N[C@@H](CS)C(=O)N[C@@H](CCCNC(=N)N)C(=O)N[C@@H](CCCCN)C(=O)N1CCC[C@H]1C(=O)N[C@@H](CS)C(=O)N[C@@H](CCCNC(=N)N)C(=O)N[C@@H](CCCCN)C(=O)N1CCC[C@H]1C(=O)N[C@@H](CS)C(=O)N[C@@H](CCCNC(=N)N)C(=O)N[C@@H](CCCCN)C(=O)N1CCC[C@H]1C(N)=O
MIC (Candida albicans; broth microdilution; 56452, RPMI-1640; 48 h, 30 °C): 16 µM

CC(C)CCCCCCCCC/C=C/C(=O)N[C@@H](CC(=O)O)C(=O)N[C@H]1CNC(=O)[C@@H]2CCCN2C(=O)[C@H](C(C)C)NC(=O)[C@@H](CN)NC(=O)CNC(=O)[C@H](CC(=O)O)NC(=O)CNC(=O)[C@H](CC(=O)O)NC(=O)[C@H](CC(=O)O)NC(=O)[C@H]2CCCCN2C1=O
MIC (Staphylococcus aureus; broth microdilution; BR-VRSA strain 880, Mueller-Hinton broth, Mg2+ 10 mg/L; 16 h, together with: Ca2+ 2.5 mM): 4 µg/mL

CCCCCCCC(=O)NCCCC[C@H](NC(=O)CCCCCCC)C(=O)N[C@@H](CCCCNC(=O)CCCCCCC)C(=O)NCC(=O)NCC(=O)NCC(=O)N[C@@H](CS)C(=O)N[C@@H](CCCNC(=N)N)C(=O)N[C@@H](CCCCN)C(=O)N1CCC[C@H]1C(=O)N[C@@H](CS)C(=O)N[C@@H](CCCNC(=N)N)C(=O)N[C@@H](CCCCN)C(=O)N1CCC[C@H]1C(=O)N[C@@H](CS)C(=O)N[C@@H](CCCNC(=N)N)C(=O)N[C@@H](CCCCN)C(=O)N1CCC[C@H]1C(N)=O
MIC (Candida albicans; broth microdilution; 17546, RPMI-1640; 48 h, 30 °C): 16 µM

CC(=O)N[C@@H](CC(C)C)C(=O)N[C@H]1CSSC[C@@H](C(=O)N2CCC[C@H]2C(N)=O)NC(=O)[C@H]([C@@H](C)O)NC(=O)[C@H](C(C)C)NC(=O)[C@H]([C@@H](C)O)NC(=O)CNC(=O)[C@H](CC(C)C)NC(=O)[C@H](Cc2ccccc2)NC(=O)[C@H](Cc2ccc(O)cc2)NC(=O)[C@H](CC(C)C)NC(=O)[C@H](CCCCN)NC(=O)[C@H](Cc2ccccc2)NC(=O)[C@H](CCCNC(=N)N)NC(=O)[C@H](CCC(N)=O)NC(=O)[C@H](CC(C)C)NC(=O)[C@H](CCCCN)NC(=O)[C@@H]2CCCN2C(=O)[C@H](CCCCN)NC(=O)[C@H](C(C)C)NC(=O)[C@H](CC(N)=O)NC(=O)[C@H](Cc2ccc(O)cc2)NC(=O)[C@H]([C@@H](C)O)NC1=O
MIC (Aeromonas hydrophila; broth dilution; 24 h): 5 to 10 µM

CCCCCCCC(=O)NCCCC[C@H](NC(=O)CCCCCCC)C(=O)N[C@@H](CCCCNC(=O)CCCCCCC)C(=O)NCC(=O)NCC(=O)NCC(=O)N[C@@H](CS)C(=O)N[C@@H](CCCNC(=N)N)C(=O)N[C@@H](CCCCN)C(=O)N1CCC[C@H]1C(N)=O
MIC (Candida albicans; broth microdilution; SP 3876, RPMI-1640; 48 h, 30 °C): > 128 µM

CC(C)CCCCCCCCC/C=C/C(=O)N[C@@H](CC(N)=O)C(=O)N[C@H]1CNC(=O)[C@@H]2CCCN2C(=O)[C@H](C(C)C)NC(=O)[C@@H](CN)NC(=O)CNC(=O)[C@H](CC(=O)O)NC(=O)CNC(=O)[C@H](CC(=O)O)NC(=O)[C@H](CC(=O)O)NC(=O)[C@H]2CCCCN2C1=O
MIC (Staphylococcus simulans; broth microdilution; 22, Mueller-Hinton broth, Mg2+ 10 mg/L; 16 h, 30 °C, together with: Ca2+ 1.0 mM): 4 µg/mL

CCCCCC(=O)NCCCC[C@H](NC(=O)CCCCC)C(=O)N[C@@H](CCCCNC(=O)CCCCC)C(=O)NCC(=O)NCC(=O)NCC(=O)N[C@@H](CS)C(=O)N[C@@H](CCCNC(=N)N)C(=O)N[C@@H](CCCCN)C(=O)N1CCC[C@H]1C(=O)N[C@@H](CS)C(=O)N[C@@H](CCCNC(=N)N)C(=O)N[C@@H](CCCCN)C(=O)N1CCC[C@H]1C(N)=O
MIC (Candida albicans; broth microdilution; 14936, RPMI-1640; 48 h, 30 °C): 8 µM

[O-][N+]1=C(c2ccsc2)C2=NCCCN2c2ccccc21
MIC (Fusobacterium nucleatum): 0.06 to 1 µg/mL

Some of these lines once more:
CC[C@H](C)[C@H](N)C(=O)NCC(=O)N[C@@H](CC(C)C)C(=O)N[C@H](CCC(=O)O)C(=O)N[C@H](C(=O)N[C@H]1CCCCNC(=O)[C@H](CC(N)=O)NC(=O)[C@@H](CC(=O)O)NC(=O)[C@H](Cc2c[nH]cn2)NC(=O)[C@@H](Cc2ccccc2)NC(=O)[C@H]([C@@H](C)CC)NC(=O)[C@@H](CCCN)NC1=O)[C@@H](C)CC
MIC (Staphylococcus simulans; 22; 18 h, 37 °C, 0.3 mM ZnSO4 LB): > 64 µg/mL

CCCCCCn1cc[n+](CCCCCCOc2cc(OCCCCCC[n+]3ccn(CCCCCC)c3)cc(OCCCCCC[n+]3ccn(CCCCCC)c3)c2)c1.[Br-].[Br-].[Br-]
MIC (eight bacterial strains): ≤ 2 µM

CC[C@H](C)[C@H](NC(=O)[C@H](CCCNC(=N)N)NC(=O)[C@H](CO)NC(=O)[C@H](Cc1ccc(O)cc1)NC(=O)[C@@H](NC(=O)[C@@H](NC(=O)[C@H](C)NC(=O)CNC(=O)[C@H](CCCCN)NC(=O)[C@H](CCCCN)NC(=O)CCNC(=O)CCCCCNC(=O)[C@H](CCCNC(=N)N)NC(=O)CCCCCNC(=O)[C@H](CCCNC(=N)N)NC(=O)[C@H](CCCNC(=N)N)NC(=O)CCCCCNC(=O)[C@H](CCCNC(=N)N)NC(=O)[C@H](CCCNC(=N)N)NC(=O)CCCCCNC(=O)[C@H](CCCNC(=N)N)NC(=O)[C@H](CCCNC(=N)N)NC(=O)CCCCCNC(=O)[C@@H](N)CCCNC(=N)N)C(C)C)[C@@H](C)O)C(=O)N[C@@H](CO)C(=O)NCC(=O)N[C@@H](CCC(N)=O)C(=O)N[C@@H](Cc1ccc(O)cc1)C(=O)N[C@@H](CCCCN)C(=O)O
MIC (Escherichia coli; ATCC 25922; 1 h, 37 °C, after 50% human serum): 6 µM
